Experimental data gathered from unrelated publications.
Numbered parts are unrelated; each lists some results of a single study. Changes are numbered by the printed parent chain.

Sample 1
Target: RNA binding protein fox-1 homolog 2, RRM domain, GST-SBP tag (RBFOX2, Homo sapiens, UniProt O43251-10, residues 100-194)
Technique: RNA Bind-n-Seq
Molecule type: RNA
Sample: in vitro
Tested at: 365 nM
Setting: natural RNA segment, single round, ends assumed
Relative to: no-protein control
Reading: higher = stronger binding
Constant ends, left off below: GGGAGUUCUACAGUCCGACGAUC … UGGAAUUCUCGGGUGCCAA
Construct (chain): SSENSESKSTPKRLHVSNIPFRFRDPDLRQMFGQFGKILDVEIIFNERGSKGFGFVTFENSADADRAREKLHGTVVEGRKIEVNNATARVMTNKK
| Sequence | RBNS enrichment (R) |
| --- | --- |
| CGGCCACAGCCCCCUCCCUUUAGGCUAAAAUUCUCACCCAAGCUUUCCCACGGGAAGCUCUAGGACAGGAGGAAGGCGGGAAGCCCUGGGCAGGAACCACUCUGGCUGUC | 0.419 |
| UGGGUGCCGUAUGUGUAUGCGGCAGUGUUGUCAGGCGAUCUUGUUUGAAGCUCUAUGUUGCCAUAAUUACCAUCAAGUACACACUGUUGGCAAAAGGCUAACACCUGACU | 0.47 |
| UGGACUUAUCAUAUUUUUAUAUAUUUUUAAAUUUCUGUACCUUUAUUGUUAAACACCAAGUUUCACAUACAAGAGGUUUCUUUCAUUGUCAAAUUAAGAUAUGUAUUUGU | 0.562 |
| UUUUAUUUUAUCUGCUAUUUCAGUUCAUCUAAAUCUUGUGUUCUGUACAUGUGAUGUUUGACUGUACCAUCGACUGUUAUGGAAGUUCAGCGUUGUAUGUCUCUCUACAC | 0.616 |
| AUCAUCUGUGGUGGGAAAAGCUAUGUAAAUAGGUAGAUUGUAUAGAGAGACUAUCUUGUGUUGUGCCUGUAUGAAUUUUUAAAAGUUGUUGACUGGAUUUUGCAAAAGGA | 1.01 |
| GAUGGUUAGGUUGUUCUGUAGACUGGCAAUGAGAUUAGAAGUUCCUAGCUUCAGAUAAAGAUGAAAGAGAGGAGAUCAUUGUCUUCUGUCUUCUUCUGGCCCUGGGUUUA | 0.485 |
| UGGUGGGGAGGCCACAGGAAGGCCCAACCUGCACGGCAGGACCCCCCUGCAUGGCAGGACCCCUGUGCUUCAGUUCUAAUAAAUCUGAAUUUGGCUGUGCAAAGUCCCCU | 0.277 |
| UUUAAUAUAGAAAAUAAUUAUGGAGUUAGGAAUCUCAUGGCUACAUUUACAUUUUUAGGUUAUUACAGAAAAUUCUCUUAAUUUAUUAUAGUCAAGUGUAUUAUGUAAUC | 0.614 |
| UGGCGUGAAGUAAUGGCAGUAGAAACCCAUGGACUUCUCUUGUUCUUUCUAUCGCUGUGGAUAAGAGAAUCAGCUACUGUGUUAUUCCUUAUCUGAGCCAAACCCCUUAG | 0.426 |
| AAGGCUUUUUCAGGGAAAACAAACAAACCGAUUUUAUAAGUCCAAUCAUCCCCGUGACCUCCUCAGCUGCUGACAAUCCUAUUUAGCAUAUGCAAAUCUUUUAUUGUAGA | 0.451 |
| UAUAUGGGGACUGGAUCCCAGUAAGGCUCACAAGGCUAAGGGGAACUUAAGUAUGGGAUACAGCACAUGGAUGCACCCCUCUGUGUGUCAGGCAUCCUCCAUGUGGACUC | 0.527 |
| CCUGUUUGUAUUUAUAAAAAACAUGAACACAGGUCCUAAUAAAGAGAUGCCUAAGGCGGUAACUCUGAUCACCCCGUCCGCUUUGAUGGUGGGGAUACCUGUUGUAUCCU | 0.406 |

Sample 2
Target: Ras GTPase-activating protein-binding protein 1, full length (G3BP1, Homo sapiens, UniProt Q13283)
Sequence of UniProt Q13283 (whole entry, looked up): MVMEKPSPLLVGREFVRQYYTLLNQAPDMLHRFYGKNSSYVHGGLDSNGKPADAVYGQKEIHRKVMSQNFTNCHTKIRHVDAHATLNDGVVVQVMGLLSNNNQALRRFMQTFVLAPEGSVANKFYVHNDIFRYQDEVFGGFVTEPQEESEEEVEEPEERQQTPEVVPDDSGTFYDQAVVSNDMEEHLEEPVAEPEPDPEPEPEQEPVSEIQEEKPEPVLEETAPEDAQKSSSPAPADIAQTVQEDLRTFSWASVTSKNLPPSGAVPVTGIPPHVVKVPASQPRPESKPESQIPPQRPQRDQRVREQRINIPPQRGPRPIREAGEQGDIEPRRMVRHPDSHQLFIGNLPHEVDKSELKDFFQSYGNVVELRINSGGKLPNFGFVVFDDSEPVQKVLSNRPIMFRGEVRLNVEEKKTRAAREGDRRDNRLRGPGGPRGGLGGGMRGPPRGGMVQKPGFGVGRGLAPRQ
Technique: RNA Bind-n-Seq
Molecule type: RNA
Sample: in vitro
Tested at: 200 nM
Setting: whole 134-nt RNA, ends assumed
With: 150 mM LiCl
Relative to: input library
Reading: higher = stronger binding
Library: 7-deaza-guanosine replaces G
Constant ends, left off below: GGGAGUUCUACAGUCCGACGAUC … UGGAAUUCUCGGGUGUCAAGG
| Sequence | log2 enrichment |
| --- | --- |
| GCAGGAAGUAAAAACAAAUGGUAAUGCUUCGGAUAGUGGCAGGGGUGGGGGUUGCUAAGGAAAGGGUGGGAUGGGAGUGGGUAAAGAGUU | -0.061 |
| GUCCUGUGCUACACAUCGUAUGUACCGAAUCGGCCCCCCGGCCCCCCGGGCCCCCCGGAAAGUAUUAUGUUACGCCGUUCGGAUCUGCAC | -0.197 |
| UAACUUUAGAGGAGGAUCUGAUGGAUAUGGCAGUAGACGUGGAUUUGGGGAUGGCUAUAAUGGGUAUGGAGGAGGACCUGGAGGUGGCAA | 0.198 |
| UCCUCAAGUCCUGUGCUACACAUCGUAUGUACCGAAUCGGUGGAGGUUUGGAAAGUAUUAUGUUACGCCGUUCGGAUCUGCACUUCCAGC | -0.933 |
| GCAGGAAGUAAAAACAAAUGGAAAUGCUUCGGAUAGUGGCAGGGGUAAAGGUUGCUAAGGAAAGGGUGGGAUGGGAGUGGGUAAAGAGUU | 0.629 |
| AGUCCUGUGCUACACAUCGUAUGUACCGAAUCGGUUUUUGGUUUUUGGUUUUUUUGGAAAGUAUUAUGUUACGCCGUUCGGAUCUGCACU | -1.35 |
| GUCCUGUGCUACACAUCGUAUGUACCGAAUCGGCCCCCCGGGGCCCCCCGGCCCCCCGGAAAGUAUUAUGUUACGCCGUUCGGAUCUGCA | -2.02 |
| CUGUGCUACACAUCGUAUGUACCGAAUCGGGGAAAAAAAGGGGUUUUUGGGGAAAAAGGGGAAAGUAUUAUGUUACGCCGUUCGGAUCUG | -0.229 |
| UAACUUUAGAGGAGGAUCUGAUGGAUAUGGCAGUGGACGUGGAUUUGGGGAUGGCUAUAAUGGGUAUGGAGGAGGACCGGGAGGUGGCAA | 0.171 |
| CUCAAGUCCUGUGCUACACAUCGUAUGUACCGAAUCGGCCGGGGCCGGCCGGGGAAAGUAUUAUGUUACGCCGUUCGGAUCUGCACUUCC | 0.417 |
| UCAGGUCCUUAAGUACCUUCGUAUUACUUUUAGCAGGAAAAACGGCAUGUUUUGCAUCUGGUGUGCAAUGUGAAGAGUCCUUCAAAAAUG | -0.757 |

Sample 3
Target: CCND3, cyclin fold, Cln2 fusion (human)
Technique: yeast growth competition, sequencing
Sample: yeast
Setting: weak parent motif
Relative to: not given
Reading: higher = stronger binding
Parent: RB1 docking peptide (human); PKPLKKLRFDIEG
| Variant | normalised enrichment score |
| --- | --- |
| I11Q | 0.0689 |
| I11G | 0.083 |
| K6A | 0.175 |
| K6T | 0.091 |
| L4A | 0.172 |
| R8M | 0.0996 |
| P1W | 0.118 |
| L7Y | 0.109 |
| E12N | 0.223 |
| K2H | 0.0791 |
| P3T | 0.0915 |
| E12C | 0.138 |
| I11K | 0.126 |
| L4E | 0.16 |
| R8K | 0.108 |
| P1D | 0.252 |
| P3E | 0.196 |

Sample 4
Target: Histone acetyltransferase KAT6A, both winged helices, GST fusion (KAT6A, Homo sapiens, UniProt Q92794, residues 1-181)
Technique: protein binding microarray
Molecule type: double-stranded DNA, one strand shown
Sample: in vitro
Tested at: not given
Setting: 8-mer, flanks averaged, mean of 2 arrays, mostly near background
Relative to: not given
Reading: higher = stronger binding
Residues (chain): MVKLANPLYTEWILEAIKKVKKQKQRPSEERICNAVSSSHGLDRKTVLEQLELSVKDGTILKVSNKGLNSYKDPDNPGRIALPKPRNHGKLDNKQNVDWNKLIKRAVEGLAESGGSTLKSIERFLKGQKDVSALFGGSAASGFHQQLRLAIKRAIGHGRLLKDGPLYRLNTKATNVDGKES
| Sequence | E-score |
| --- | --- |
| AATCGGTC | 0.126 |
| AAAGCTAG | -0.282 |
| AGCGCCAT | 0.199 |
| ATCCACCG | 0.0249 |
| GACAAGAA | -0.00998 |
| AATTAGTA | -0.0826 |
| GCCAAATA | -0.124 |
| GTGTCCAA | -0.125 |
| GACACCGC | 0.249 |
| CTCGCCGC | 0.287 |
| GCGAAGAC | 0.125 |
| AACATGCT | -0.0294 |
| AATGAGTC | -0.0446 |
| CATCATGG | -0.0618 |
| GGCGCTAA | 0.22 |
| AATGGGAT | -0.0785 |
| CCTACGCC | 0.00255 |
| TATAGCAA | -0.0544 |
| CGTGATCC | -0.0321 |
| ACCGTAGG | -0.00494 |
| ATCTAACG | 0.0572 |
| TAGACAGA | -0.189 |
| CAATAAAA | -0.106 |

Sample 5
Target: Centromere-binding protein 1, full length, His-tagged (CBF1, Saccharomyces cerevisiae, UniProt P17106, residues 1-351)
Sequence of UniProt P17106 (whole entry, looked up): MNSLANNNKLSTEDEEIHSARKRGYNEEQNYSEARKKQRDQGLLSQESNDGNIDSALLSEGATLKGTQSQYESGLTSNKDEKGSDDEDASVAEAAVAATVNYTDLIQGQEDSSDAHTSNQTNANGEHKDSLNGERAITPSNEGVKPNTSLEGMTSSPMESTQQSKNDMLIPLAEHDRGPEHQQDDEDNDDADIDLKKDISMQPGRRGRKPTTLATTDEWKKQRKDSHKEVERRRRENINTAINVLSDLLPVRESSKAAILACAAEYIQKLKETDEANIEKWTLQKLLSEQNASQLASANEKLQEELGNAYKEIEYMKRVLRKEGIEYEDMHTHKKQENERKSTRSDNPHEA
Technique: competition protein-binding microarray
Molecule type: double-stranded DNA, one strand shown
Sample: in vitro
Tested at: 2 µM
Setting: whole 60-bp probe, lowest competitor level
With: Pho4 competitor, 0.05 µM
Reading: higher = stronger binding
Constant ends, left off below: … GTCTTGATTCGCTTGACGCTGCTG
| Sequence | fluorescence intensity |
| --- | --- |
| CTTCTGTAAATTTGGTGTGTGGGTGGACGCGCCCCG | 89.4 a.u. |
| CGGGGTTAAGTTTGTCACGCAACTTGCTTGCAGCAG | 111 a.u. |
| GAGAATGCCTTTGTCCATGTGATAAACCGTCCAAAA | 303 a.u. |
| CTTCAACAACATCGGCACGGGAGTGGGATTTAGCGG | 106 a.u. |
| TTGATTAATGATTCCTTTTCCTCTTCTAGTGAAGTA | 74.5 a.u. |
| CGGGGTTAAGTTTTTCACGTGCGTTGCTTGCAGCAG | 494 a.u. |
| AAATTACTAAGTTGACATGTGGGTGACGCCGTATGA | 98.8 a.u. |
| GTCTTGTCTCATTGCACAGTGGGTGTCCCCACTTCA | 88.8 a.u. |
| CGTCCTAGTGATTGGATAGTGGGTGCCATGAGGAAG | 70.7 a.u. |
| GTAACTTGGCGCTCTCTCGTGCCAGTGGTGATTTTG | 64.9 a.u. |
| ACAAAAATGACGGAACTCGTGACTCGAGTCAAAAGC | 710 a.u. |
| CATACCCAACCTTGTCACAGCACTTAAGATATTTGT | 87.4 a.u. |
| CTTCTGTAAATTTGGCATGTGGGTGGACGCGCCCCG | 99.9 a.u. |
| CTTCTGTAAATTTGCCGGGTGGGTGGACGCGCCCCG | 88.8 a.u. |
| CTAAACTACGCCTGGCACGTGGGTAATGAAGTATAC | 1170 a.u. |
| CTAACGAAGGTTTGTCACGAAACTTACAAGCCAAGT | 85.6 a.u. |
| CGCGCAGGATGCCATCACGGGCGATGGGACCACTAC | 70.7 a.u. |
| CATGGGGCGGTAGGGTTCGTGATGGTTTTTCTGCCC | 99.7 a.u. |
| AAAGCGGTAATTTGTTACGTGGGTGCAGATATCTAT | 80.1 a.u. |
| CATGATTTTTGCTTTGGCATTGTTCTGGTATGGTAT | 145 a.u. |
| TATTTAATGCGACAGGTGGAAATCAGGACTATGCAG | 81.6 a.u. |
| TGCGCAACAACTTGTCACGAAACTTTATGTCTAGAA | 81.6 a.u. |
| ACTGCCAGGAACTGGCACGTTAGCCCTATTACGATC | 79.4 a.u. |
| AAAAAGTAAAGTTAGCACGTGATGGTTTAGAAAATC | 7360 a.u. |

Some of these lines once more (sample 4):
| Sequence | E-score |
| --- | --- |
| GACACCGC | 0.249 |
| CTCGCCGC | 0.287 |
| GCGAAGAC | 0.125 |
| AACATGCT | -0.0294 |
| AATGAGTC | -0.0446 |
| CATCATGG | -0.0618 |
| GGCGCTAA | 0.22 |
| AATGGGAT | -0.0785 |
| CCTACGCC | 0.00255 |
